Results of several laboratories.
Parts stem from different laboratories: compare values within a part only.
UniProt P11802, sequence (whole entry, looked up): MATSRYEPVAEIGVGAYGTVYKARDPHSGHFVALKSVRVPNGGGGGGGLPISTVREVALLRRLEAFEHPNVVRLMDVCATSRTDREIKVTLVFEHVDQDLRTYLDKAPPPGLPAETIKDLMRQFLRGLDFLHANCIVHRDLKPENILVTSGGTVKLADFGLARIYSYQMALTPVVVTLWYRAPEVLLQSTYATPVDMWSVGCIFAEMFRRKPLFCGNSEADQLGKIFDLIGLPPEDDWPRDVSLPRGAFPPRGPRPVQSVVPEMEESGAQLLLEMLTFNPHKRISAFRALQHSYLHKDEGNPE
UniProt Q59H18, sequence (whole entry, looked up): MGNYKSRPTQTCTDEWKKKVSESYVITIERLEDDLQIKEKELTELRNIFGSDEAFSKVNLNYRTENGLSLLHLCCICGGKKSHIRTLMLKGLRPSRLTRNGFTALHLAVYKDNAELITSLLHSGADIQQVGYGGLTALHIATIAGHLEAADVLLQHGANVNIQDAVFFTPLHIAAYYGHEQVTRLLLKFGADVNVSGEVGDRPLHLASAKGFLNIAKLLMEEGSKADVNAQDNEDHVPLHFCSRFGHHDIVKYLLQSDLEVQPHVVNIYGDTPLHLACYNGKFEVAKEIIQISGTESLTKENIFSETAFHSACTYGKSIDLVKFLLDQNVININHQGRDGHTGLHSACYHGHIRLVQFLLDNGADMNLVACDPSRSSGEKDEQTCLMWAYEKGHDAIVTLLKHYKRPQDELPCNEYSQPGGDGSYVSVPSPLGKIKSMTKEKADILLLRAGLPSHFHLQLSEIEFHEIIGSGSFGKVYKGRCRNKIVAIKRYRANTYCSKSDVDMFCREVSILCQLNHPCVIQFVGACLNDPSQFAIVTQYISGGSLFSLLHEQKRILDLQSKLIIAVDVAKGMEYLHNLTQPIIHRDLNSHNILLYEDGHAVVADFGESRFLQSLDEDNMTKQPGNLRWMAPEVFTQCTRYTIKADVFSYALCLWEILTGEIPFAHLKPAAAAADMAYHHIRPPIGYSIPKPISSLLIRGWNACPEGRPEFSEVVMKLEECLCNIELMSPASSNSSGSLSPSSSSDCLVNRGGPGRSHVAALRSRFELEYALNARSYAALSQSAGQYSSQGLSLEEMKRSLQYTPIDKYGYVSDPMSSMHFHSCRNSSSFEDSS
UniProt P04049, sequence (whole entry, looked up): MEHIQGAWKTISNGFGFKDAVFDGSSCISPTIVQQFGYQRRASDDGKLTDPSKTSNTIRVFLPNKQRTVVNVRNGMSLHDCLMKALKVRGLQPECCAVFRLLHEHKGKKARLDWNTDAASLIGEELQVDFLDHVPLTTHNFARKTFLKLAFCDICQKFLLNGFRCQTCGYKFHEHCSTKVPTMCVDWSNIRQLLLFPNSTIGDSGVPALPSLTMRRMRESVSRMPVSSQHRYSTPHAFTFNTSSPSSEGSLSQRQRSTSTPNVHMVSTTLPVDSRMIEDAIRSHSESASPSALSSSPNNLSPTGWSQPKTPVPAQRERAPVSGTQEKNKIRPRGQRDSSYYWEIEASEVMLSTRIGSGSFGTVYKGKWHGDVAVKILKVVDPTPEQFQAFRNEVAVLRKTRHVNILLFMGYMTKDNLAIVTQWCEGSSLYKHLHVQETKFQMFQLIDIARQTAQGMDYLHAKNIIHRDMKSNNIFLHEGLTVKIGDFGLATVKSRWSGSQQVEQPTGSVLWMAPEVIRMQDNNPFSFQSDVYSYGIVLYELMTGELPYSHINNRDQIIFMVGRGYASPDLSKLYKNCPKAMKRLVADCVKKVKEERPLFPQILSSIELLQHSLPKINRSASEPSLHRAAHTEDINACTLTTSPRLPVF
UniProt O14976, sequence (whole entry, looked up): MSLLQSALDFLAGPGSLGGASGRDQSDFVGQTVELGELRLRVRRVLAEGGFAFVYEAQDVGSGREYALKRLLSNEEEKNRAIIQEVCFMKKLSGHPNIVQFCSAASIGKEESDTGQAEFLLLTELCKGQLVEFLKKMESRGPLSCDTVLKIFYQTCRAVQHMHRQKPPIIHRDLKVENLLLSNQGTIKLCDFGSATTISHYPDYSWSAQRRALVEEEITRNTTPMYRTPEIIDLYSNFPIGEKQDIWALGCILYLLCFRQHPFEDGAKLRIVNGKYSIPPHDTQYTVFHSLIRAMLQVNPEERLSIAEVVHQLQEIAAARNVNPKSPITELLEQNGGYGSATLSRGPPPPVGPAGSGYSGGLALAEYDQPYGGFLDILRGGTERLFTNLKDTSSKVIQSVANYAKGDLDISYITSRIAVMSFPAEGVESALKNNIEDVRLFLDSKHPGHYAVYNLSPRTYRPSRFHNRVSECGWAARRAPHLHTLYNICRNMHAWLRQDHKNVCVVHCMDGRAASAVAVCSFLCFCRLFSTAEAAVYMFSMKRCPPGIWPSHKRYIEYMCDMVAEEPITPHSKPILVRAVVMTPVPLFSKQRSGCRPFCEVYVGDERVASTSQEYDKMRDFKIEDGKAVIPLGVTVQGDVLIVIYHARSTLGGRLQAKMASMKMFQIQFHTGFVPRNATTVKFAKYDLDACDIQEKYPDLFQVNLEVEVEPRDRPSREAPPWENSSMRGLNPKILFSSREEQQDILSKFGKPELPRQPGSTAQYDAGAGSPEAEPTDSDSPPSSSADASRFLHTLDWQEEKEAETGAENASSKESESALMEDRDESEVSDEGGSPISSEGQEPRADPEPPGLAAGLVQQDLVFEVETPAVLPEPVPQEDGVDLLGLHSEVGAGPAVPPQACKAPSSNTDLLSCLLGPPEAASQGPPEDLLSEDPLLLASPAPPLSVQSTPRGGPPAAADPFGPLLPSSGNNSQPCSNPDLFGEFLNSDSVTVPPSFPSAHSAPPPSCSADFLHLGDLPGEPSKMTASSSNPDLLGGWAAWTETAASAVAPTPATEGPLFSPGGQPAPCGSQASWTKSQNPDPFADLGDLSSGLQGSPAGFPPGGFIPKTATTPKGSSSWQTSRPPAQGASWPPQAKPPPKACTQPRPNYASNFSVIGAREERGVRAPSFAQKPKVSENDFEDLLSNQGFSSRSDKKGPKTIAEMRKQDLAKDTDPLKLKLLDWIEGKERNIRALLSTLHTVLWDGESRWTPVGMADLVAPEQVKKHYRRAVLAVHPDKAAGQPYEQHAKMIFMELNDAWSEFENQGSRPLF
UniProt P50750, sequence (whole entry, looked up): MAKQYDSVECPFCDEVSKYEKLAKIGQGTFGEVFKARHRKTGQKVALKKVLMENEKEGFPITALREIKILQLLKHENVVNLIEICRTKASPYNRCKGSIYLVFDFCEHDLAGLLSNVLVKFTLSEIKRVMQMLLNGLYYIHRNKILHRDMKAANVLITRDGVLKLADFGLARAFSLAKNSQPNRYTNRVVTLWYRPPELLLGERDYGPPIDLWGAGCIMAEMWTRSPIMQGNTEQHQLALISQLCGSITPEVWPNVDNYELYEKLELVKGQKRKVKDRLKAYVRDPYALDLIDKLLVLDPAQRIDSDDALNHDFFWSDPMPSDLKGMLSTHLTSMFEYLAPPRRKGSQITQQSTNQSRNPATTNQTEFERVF

Series 1 — method: competition with immobilised ligand; concentration: 1 µM
Compound: COc1ccc2c(c1)O[C@H](c1ccc(OC)c(OC)c1)C[C@@H]2NC(=O)C1(c2ccc3c(c2)OC(F)(F)O3)CC1
target | assay | remaining binding
Receptor-type tyrosine-protein kinase FLT3, autoinhibited (FLT3, Homo sapiens, UniProt P36888) | cell-free assay | 83%
CDK9 (Homo sapiens, UniProt P50750) | cell-free assay | 78%
FLT3 (Homo sapiens, UniProt P36888, F691L/ITD) | cell-free assay | 87%
DDR1 (Homo sapiens, UniProt Q08345) | cell-free assay | 100%
CIT (Homo sapiens, UniProt O14578) | cell-free assay | 92%
DYRK1A (Homo sapiens, UniProt Q13627) | cell-free assay | 100%
CDK11A (Homo sapiens, UniProt Q9UQ88) | binding | 100%
TNK1 (Homo sapiens, UniProt Q13470) | cell-free assay | 97%
TNNI3K (Homo sapiens, UniProt Q59H18) | cell-free assay | 100%
SRC (Homo sapiens, UniProt P12931) | cell-free assay | 100%
RAF1 (Homo sapiens, UniProt P04049) | cell-free assay | 100%
Ribosomal protein S6 kinase alpha-4, N-terminal kinase domain (RPS6KA4, Homo sapiens, UniProt O75676) | cell-free assay | 100%
BMX (Homo sapiens, UniProt P51813) | cell-free assay | 100%
GAK (Homo sapiens, UniProt O14976) | cell-free assay | 100%
PIK3CA (Homo sapiens, UniProt P42336, C420R) | cell-free assay | 91%
DCLK1 (Homo sapiens, UniProt O15075) | cell-free assay | 100%
Cyclin-dependent kinase 4, with cyclin D1 (CDK4, Homo sapiens, UniProt P11802) | cell-free assay | 100%
STK3 (Homo sapiens, UniProt Q13188) | cell-free assay | 100%
MAPK9 (Homo sapiens, UniProt P45984) | cell-free assay | 92%

Series 2 — read-out: enzyme activity; mode: inhibitor; concentration: 10 µM
Target: Calcium/calmodulin-dependent protein kinase type II subunit alpha (CAMK2A, Homo sapiens, UniProt Q9UQM7)
UniProt Q9UQM7, sequence (whole entry, looked up): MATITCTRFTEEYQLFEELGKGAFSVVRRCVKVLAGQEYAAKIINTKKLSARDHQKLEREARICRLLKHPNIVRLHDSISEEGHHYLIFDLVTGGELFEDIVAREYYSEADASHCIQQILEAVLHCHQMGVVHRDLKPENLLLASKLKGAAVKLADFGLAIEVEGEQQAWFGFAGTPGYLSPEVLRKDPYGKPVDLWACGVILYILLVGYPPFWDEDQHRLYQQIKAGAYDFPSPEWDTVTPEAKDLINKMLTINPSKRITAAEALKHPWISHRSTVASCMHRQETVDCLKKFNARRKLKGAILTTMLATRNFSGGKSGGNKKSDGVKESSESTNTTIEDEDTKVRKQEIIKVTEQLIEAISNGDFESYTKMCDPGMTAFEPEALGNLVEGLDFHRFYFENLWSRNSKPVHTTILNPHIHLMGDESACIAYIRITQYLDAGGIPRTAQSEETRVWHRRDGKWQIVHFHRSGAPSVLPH
Structure (SMILES) | inhibition [%]
CN[C@@H]1[C@@H](O)[C@@H](O[C@@H]2[C@@H](O)[C@H](O[C@H]3OC(CN)=CC[C@H]3N)[C@@H](N)C[C@H]2N)OC[C@]1(C)O | -12
C[C@H](CC[C@@H](O[C@@H]1O[C@H](CO)[C@@H](O)[C@H](O)[C@H]1O[C@@H]1O[C@H](CO)[C@@H](O)[C@H](O)[C@H]1O)C(C)(C)O)[C@H]1CC[C@@]2(C)[C@@H]3CC=C4[C@@H](CC[C@H](O[C@@H]5O[C@H](CO)[C@@H](O)[C@H](O)[C@H]5O)C4(C)C)[C@]3(C)[C@H](O)C[C@]12C | -83
O=C(O)C[C@@](O)(C(=O)O)[C@H](O)C(=O)O | -19
O=C(O)c1cc2ccccc2[nH]1 | -22
COc1cc(NC(C)CCCN)c2ncccc2c1 (stereo not shown) | 14
CCCCCCCC(=O)OC[C@@H](O)[C@@H](OC)[C@@H]1OC(C(=O)O)=C[C@H](N=C(N)N)[C@H]1NC(C)=O | -2
COc1cc2ccc(=O)oc2cc1O[C@@H]1O[C@H](CO)[C@@H](O)[C@H](O)[C@H]1O | 28
CSCC1CN(/N=C/c2ccc([N+](=O)[O-])o2)C(=O)O1 (stereo not shown) | -13
Cn1cnc2c(F)c(Nc3ccc(Br)cc3F)c(C(=O)NOCCO)cc21 | -9
C[C@H](C[C@H](O)[C@H]1OC1(C)C)C1=C2C[C@H](O)[C@H]3[C@@]4(C)CCC(=O)C(C)(C)[C@@H]4CC[C@]3(C)[C@@]2(C)CC1 | -31
C[C@H](CC(=O)C[C@@H](C)[C@H]1CC(=O)[C@@]2(C)C3=C(C(=O)C[C@]12C)[C@@]1(C)CC[C@H](O)C(C)(C)[C@@H]1C[C@@H]3O)C(=O)O | -9

Series 3 — method: Phase 2a trial; host: idiopathic pulmonary fibrosis patients
Compound: CC(C)n1cnc(-c2ccc(F)cc2)c1-c1ncc(C(=O)Nc2ccc(N3CCN(C)CC3)cc2)[nH]1
assay | setting | patients with adverse events [%]
item: back pain | 30 mg once daily, grade 5 maximum intensity | 0
item: weight increased | dose not given, grade 2 maximum intensity, all arms | 0
item: gamma-glutamyltransferase increased | 30 mg once daily, grade 2 maximum intensity | 0
item: weight increased | 60 mg once daily, grade 4 maximum intensity | 0
item: oral herpes | oral, dose not given, grade 2 maximum intensity, all arms | 0
item: bile acids increased | 60 mg once daily, grade 1 maximum intensity | 0
item: weight increased | 30 mg once daily, grade 1 maximum intensity | 0
item: vision blurred | dose not given, grade 5 maximum intensity, all arms | 0
item: neutrophil count increased | dose not given, grade 4 maximum intensity, all arms | 0
item: muscular weakness | 30 mg once daily, grade 2 maximum intensity | 0

Series 4 — read-out: enzyme activity; mode: inhibitor; concentration: 0.5 µM; baseline: control
Target: Cyclin-dependent kinase 4, with cyclin D1 (CDK4, Homo sapiens, UniProt P11802)
SMILES | remaining activity
O=S(=O)(c1cccc2cnccc12)N1CCCNCC1 | 92.2%
Cc1nc(-c2ccccc2)c(-c2ccncc2)o1 | 114%
Cn1sc(=O)n(Cc2ccccc2)c1=O | 98.2%
CO[C@H]1C[C@@H]2CC[C@@H](C)[C@@](O)(O2)C(=O)C(=O)N2CCCC[C@H]2C(=O)O[C@H]([C@H](C)C[C@@H]2CC[C@@H](O)[C@H](OC)C2)CC(=O)[C@H](C)/C=C(\C)[C@@H](O)[C@@H](OC)C(=O)[C@H](C)C[C@H](C)/C=C/C=C/C=C/1C | 115%
CN(C)c1ccc(C=C2C(=O)Nc3ccccc32)cc1 | 97.7%
Cn1c2ccccc2c2c3c(c4c5ccccc5n(CCC#N)c4c21)CNC3=O | 27.5%
O=C(CCCc1ccc(-c2ccccc2F)cc1)Nc1ccc(O)cc1 | 102%
Cc1ccc(NC(=O)c2ccc(CN3CCN(C)CC3)cc2)cc1Nc1nc(-c2cccnc2)cs1 | 94.1%
Cc1ccc(Nc2nccc(N(C)c3ccc4c(C)n(C)nc4c3)n2)cc1S(N)(=O)=O | 88.4%
N#CC(C#N)=C(N)/C(C#N)=C/c1ccc(O)cc1 | 100%
Nc1ccc2ncnc(NCCc3ccc(Oc4ccccc4)cc3)c2c1 | 102%
O=C(O)c1ccc2c3c1cccc3c(=O)n1c3ccccc3nc21 | 106%
CCOC(=O)c1c(C)[nH]c(/C=C2\C(=O)Nc3ccccc32)c1C | 103%
Nc1[nH]nc2nc3ccccc3nc12 | 92.4%
Oc1ccc(-c2nc(-c3ccncc3)c(-c3ccc(F)cc3)[nH]2)cc1 | 105%

A few entries again (series 1):
target | assay | remaining binding
TNNI3K (Homo sapiens, UniProt Q59H18) | cell-free assay | 100%
Cyclin-dependent kinase 4, with cyclin D1 (CDK4, Homo sapiens, UniProt P11802) | cell-free assay | 100%
PIK3CA (Homo sapiens, UniProt P42336, C420R) | cell-free assay | 91%
